{"data": "Results gathered from unrelated publications", "MET Y1235D": "Hepatocyte growth factor receptor (MET, Homo sapiens, UniProt P08581, Y1235D)", "MET": "Hepatocyte growth factor receptor (MET, Homo sapiens, UniProt P08581)", "note": "Each line is one published result; not all experiments were run side by side."}
{"Compound": "COc1cc(N2CCN(C)CC2)ccc1Nc1nc(N)n(C(=O)NCc2c(Cl)cccc2Cl)n1", "target": "MET Y1235D", "observed": "enzyme activity", "tested at": "10 µM", "relative to": "control", "quantity": "remaining activity", "result": "1.2%"}
{"Compound": "C=CC(=O)N1CCC(C(=O)NCC(=O)N2CCN(c3nc(-c4cnc(N)nc4C(F)F)nc(N4CCOCC4)n3)CC2)CC1", "target": "MET Y1235D", "method": "KINOMEscan", "tested at": "1 µM", "quantity": "remaining binding", "result": "98%"}
{"Compound": "O=C(NC1CCC1)c1ccc2nc(-c3cccc(NS(=O)(=O)NCCN4CCCCC4)c3)cn2c1", "target": "MET", "observed": "enzyme activity", "tested at": "10 µM", "quantity": "remaining activity", "result": "100%"}
{"Compound": "[2H]c1cc(C)c(NC(=O)c2cnc(Nc3cc(N4CCCCC4)nc(C)n3)s2)c(Cl)c1", "target": "MET", "tested at": "0.01 µM", "quantity": "inhibition", "result": "< 30%"}
{"Compound": "CCCOc1ccc(OC)c(F)c1C(=O)c1ccc(C(=O)N[C@@H]2CNC[C@H]2NC(=O)c2ccc3[nH]ncc3c2)cc1", "target": "MET (Homo sapiens, UniProt P08581, D1228N)", "observed": "enzyme activity", "tested at": "10 µM", "quantity": "remaining activity", "result": "49%"}
{"Compound": "C[C@@H](c1ccc(-n2cnc3c(N)ncnc32)cc1)N1CCc2nn(C)c(Cc3ccccc3)c2C1=O", "target": "MET (Homo sapiens, UniProt P08581, M1250T)", "method": "KINOMEscan", "tested at": "0.1 µM", "relative to": "DMSO control", "quantity": "remaining binding", "result": "87%"}
{"Compound": "C=CC(=O)N1CCC(COCC(=O)N2CCN(c3nc(-c4cnc(N)nc4C(F)F)nc(N4CCOC[C@@H]4C)n3)CC2)CC1", "target": "MET Y1235D", "method": "KINOMEscan", "tested at": "1 µM", "relative to": "DMSO control", "quantity": "remaining binding", "result": "100%"}
{"Compound": "C1=C/COCc2cc(ccc2OCCN2CCCC2)Nc2nccc(n2)-c2cccc(c2)COC/1", "target": "MET", "tested at": "concentration not given", "quantity": "percent of control", "result": "83%"}
{"note": "Repeated from above:"}
{"Compound": "C=CC(=O)N1CCC(COCC(=O)N2CCN(c3nc(-c4cnc(N)nc4C(F)F)nc(N4CCOC[C@@H]4C)n3)CC2)CC1", "target": "MET Y1235D", "method": "KINOMEscan", "tested at": "1 µM", "relative to": "DMSO control", "quantity": "remaining binding", "result": "100%"}
